Measured values from different studies.
Each line is one published result; not all experiments were run side by side. pEC50, pIC50: −log10 of the molar value. Converted amounts (≈) assume the structure as drawn.
4'-phosphopantetheinyl transferase PptT: 4'-phosphopantetheinyl transferase PptT (Mycobacterium tuberculosis, UniProt O33336)
Chain of UniProt O33336 (whole entry, looked up): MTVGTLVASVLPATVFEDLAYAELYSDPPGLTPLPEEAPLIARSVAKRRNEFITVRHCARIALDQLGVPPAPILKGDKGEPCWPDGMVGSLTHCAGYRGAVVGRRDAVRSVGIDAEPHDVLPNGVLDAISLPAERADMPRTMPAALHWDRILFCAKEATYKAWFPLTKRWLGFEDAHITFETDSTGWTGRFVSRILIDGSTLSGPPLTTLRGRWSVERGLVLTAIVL
Chain of UniProt P41595 (whole entry, looked up): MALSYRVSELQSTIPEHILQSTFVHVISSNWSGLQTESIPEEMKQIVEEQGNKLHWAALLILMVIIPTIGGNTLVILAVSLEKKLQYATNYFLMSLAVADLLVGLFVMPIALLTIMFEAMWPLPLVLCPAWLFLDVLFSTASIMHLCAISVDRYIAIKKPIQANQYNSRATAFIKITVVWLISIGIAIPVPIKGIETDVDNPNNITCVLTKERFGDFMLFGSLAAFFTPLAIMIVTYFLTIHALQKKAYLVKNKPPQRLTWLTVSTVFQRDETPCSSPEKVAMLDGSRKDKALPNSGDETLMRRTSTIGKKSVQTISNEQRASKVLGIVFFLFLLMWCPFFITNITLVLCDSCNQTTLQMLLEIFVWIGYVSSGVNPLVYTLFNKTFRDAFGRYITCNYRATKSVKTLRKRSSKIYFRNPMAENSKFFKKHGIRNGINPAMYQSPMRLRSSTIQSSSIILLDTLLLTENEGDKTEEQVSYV
Chain of UniProt Q96NX5 (whole entry, looked up): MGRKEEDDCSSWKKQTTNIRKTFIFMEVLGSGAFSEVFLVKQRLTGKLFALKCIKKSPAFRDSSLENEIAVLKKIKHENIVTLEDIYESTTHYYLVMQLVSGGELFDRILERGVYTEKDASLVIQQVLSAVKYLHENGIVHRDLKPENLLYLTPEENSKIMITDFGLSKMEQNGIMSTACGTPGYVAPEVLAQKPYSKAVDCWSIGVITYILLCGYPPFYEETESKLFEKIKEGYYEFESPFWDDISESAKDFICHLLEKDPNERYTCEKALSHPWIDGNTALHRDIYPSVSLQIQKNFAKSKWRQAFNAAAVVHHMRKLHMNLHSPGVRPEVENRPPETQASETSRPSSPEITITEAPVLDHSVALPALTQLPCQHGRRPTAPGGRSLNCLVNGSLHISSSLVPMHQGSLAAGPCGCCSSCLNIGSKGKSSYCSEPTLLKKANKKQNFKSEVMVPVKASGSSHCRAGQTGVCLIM
Chain of UniProt Q6ZN16 (whole entry, looked up): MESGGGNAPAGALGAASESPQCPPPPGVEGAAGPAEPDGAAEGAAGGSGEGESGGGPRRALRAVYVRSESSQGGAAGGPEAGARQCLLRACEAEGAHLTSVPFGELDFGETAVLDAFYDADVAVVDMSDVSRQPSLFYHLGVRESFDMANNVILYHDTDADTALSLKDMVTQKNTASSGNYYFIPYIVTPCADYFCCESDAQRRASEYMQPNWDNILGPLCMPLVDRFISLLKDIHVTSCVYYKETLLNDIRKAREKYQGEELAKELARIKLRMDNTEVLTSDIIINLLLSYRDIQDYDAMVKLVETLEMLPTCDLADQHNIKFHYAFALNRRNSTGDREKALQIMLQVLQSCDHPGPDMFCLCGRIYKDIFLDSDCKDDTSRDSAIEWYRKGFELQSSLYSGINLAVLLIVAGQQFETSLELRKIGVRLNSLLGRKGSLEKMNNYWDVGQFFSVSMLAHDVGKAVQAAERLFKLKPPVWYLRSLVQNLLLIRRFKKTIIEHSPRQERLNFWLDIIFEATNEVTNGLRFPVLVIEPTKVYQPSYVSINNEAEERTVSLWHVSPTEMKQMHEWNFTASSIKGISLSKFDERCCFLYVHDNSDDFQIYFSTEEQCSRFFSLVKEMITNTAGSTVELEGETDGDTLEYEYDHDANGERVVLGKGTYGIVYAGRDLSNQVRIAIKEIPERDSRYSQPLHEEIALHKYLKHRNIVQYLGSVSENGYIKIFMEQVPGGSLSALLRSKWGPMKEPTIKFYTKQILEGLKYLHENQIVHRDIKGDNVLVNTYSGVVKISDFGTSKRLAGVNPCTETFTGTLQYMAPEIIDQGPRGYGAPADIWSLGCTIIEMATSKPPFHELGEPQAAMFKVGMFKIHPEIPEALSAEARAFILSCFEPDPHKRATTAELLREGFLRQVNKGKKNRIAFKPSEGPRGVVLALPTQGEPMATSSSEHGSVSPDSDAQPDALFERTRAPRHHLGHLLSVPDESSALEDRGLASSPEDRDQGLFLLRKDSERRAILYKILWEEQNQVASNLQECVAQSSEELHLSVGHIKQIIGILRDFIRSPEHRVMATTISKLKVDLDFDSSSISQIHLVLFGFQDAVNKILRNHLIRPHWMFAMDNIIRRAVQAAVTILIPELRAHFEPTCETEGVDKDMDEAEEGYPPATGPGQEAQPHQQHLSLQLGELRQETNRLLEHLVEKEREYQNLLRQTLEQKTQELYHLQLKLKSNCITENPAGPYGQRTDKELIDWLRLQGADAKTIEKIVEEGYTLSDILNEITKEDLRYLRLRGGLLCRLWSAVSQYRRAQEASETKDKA
Chain of UniProt Q8IVW4 (whole entry, looked up): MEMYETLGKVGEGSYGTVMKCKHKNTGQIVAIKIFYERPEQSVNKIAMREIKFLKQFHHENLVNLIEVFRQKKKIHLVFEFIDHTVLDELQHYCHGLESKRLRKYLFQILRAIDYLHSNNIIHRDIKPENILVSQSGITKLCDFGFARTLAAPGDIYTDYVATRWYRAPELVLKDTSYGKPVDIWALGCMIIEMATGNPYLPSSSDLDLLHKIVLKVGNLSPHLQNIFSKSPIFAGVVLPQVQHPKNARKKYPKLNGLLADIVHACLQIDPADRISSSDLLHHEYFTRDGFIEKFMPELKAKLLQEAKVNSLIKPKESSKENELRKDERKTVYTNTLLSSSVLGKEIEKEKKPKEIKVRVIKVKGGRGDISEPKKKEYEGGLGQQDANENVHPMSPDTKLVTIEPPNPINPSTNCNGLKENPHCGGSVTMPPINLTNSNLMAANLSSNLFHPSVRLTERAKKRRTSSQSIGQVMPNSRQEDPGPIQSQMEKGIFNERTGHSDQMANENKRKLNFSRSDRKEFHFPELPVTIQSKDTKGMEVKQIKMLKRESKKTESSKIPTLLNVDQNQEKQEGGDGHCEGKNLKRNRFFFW
Chain of UniProt Q9NYL2 (whole entry, looked up): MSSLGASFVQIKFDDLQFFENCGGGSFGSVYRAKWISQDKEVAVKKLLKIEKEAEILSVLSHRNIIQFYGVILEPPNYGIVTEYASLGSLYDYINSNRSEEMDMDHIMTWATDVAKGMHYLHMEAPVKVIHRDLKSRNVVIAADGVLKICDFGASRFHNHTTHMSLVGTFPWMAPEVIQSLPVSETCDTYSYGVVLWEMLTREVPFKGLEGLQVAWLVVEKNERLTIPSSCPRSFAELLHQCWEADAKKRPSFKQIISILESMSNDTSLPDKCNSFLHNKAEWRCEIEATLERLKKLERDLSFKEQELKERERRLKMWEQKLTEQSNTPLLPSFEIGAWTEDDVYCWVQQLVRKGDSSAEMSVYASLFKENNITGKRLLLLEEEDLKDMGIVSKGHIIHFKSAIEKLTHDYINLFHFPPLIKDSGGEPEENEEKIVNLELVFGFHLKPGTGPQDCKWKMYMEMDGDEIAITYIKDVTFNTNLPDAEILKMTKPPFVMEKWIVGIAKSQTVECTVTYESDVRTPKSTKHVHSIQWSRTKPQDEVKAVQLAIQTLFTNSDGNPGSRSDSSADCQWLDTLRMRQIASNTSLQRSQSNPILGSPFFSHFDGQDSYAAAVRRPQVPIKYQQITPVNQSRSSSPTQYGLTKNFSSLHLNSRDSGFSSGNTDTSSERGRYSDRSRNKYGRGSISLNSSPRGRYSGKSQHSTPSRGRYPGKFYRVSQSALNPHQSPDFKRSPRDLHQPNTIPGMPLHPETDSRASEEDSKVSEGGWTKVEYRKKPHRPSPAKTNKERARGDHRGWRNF

Compound	tested on	assay	test system	setting	endpoint	result
Cc1nn(C)cc1-c1nc2c(N3CCN(Cc4ccc(Cl)cc4)CC3)c(Cl)cnc2[nH]1	MAP3K15 (Homo sapiens, UniProt Q6ZN16)	binding, competition with immobilised ligand	–	1 µM	remaining binding	66%
CC[C@H](C)[C@@H]1NC(=O)CNC(=O)[C@@H](CC(C)C)NC(=O)[C@@H](C(C)C)NC(=O)[C@H]2CCCN2C(=O)[C@@H](CC(C)C)NC(=O)[C@H](Cc2ccccc2)NC(=O)[C@@H]2CCCN2C(=O)[C@H](CC(C)C)NC(=O)[C@H](CO)NC(=O)CNC(=O)[C@H]([C@@H](C)O)NC1=O	–	–	aqueous buffer	18 h, pH 7.4	thermodynamic solubility	698 µM (≈ 834 µg/mL)
CC(C)C[C@H](NC(=O)[C@H](Cc1ccccc1)NC(=O)[C@H](Cc1ccccc1)NC(=O)Cc1ccc(-c2ccccc2)cc1)C(=O)N[C@@H](CCCCN)C(=O)N[C@@H](CCCNC(=N)N)C(=O)N[C@H](C(=O)N[C@@H](Cc1c[nH]c2ccccc12)C(=O)N[C@@H](CCCCN)C(=O)N[C@@H](CCCNC(=N)N)C(=O)O)C(C)C	–	metabolic stability	monkey, liver microsomes	5 min	compound remaining	24.3%
CN1CCN(S(=O)(=O)c2cc([N+](=O)[O-])ccc2N(CCOS(C)(=O)=O)CCOS(C)(=O)=O)CC1	–	–	female SCID mouse, plasma	intraperitoneal, 25 mg/kg	half-life	0.35 h
CCOC(=O)c1c(NC(=O)CNC(C)C)sc2c1CCCCC2	–	–	male mouse, plasma	intraperitoneal, 100 mg/kg, single dose	half-life	2.11 h
CC[C@@H](C)[C@H]1NC(=O)[C@@H]2CCCN2C(=O)[C@H](CO)NC(=O)[C@H](CC(C)C)NC(=O)[C@H](C(C)C)NC(=O)CN(C)C(=O)[C@@H](Cc2ccc(O)cc2)NC(=O)[C@@H](Cc2ccc(O)cc2)NC(=O)CSC[C@@H](C(=O)O)NC(=O)[C@@H](CC(C)C)NC1=O	–	–	aqueous buffer	pH 7.4	solubility	814 µM (≈ 962 µg/mL)
COc1cc(CCNC(C)c2ccccc2O)c(OC)cc1C#N (stereo not shown)	HTR2B (Homo sapiens, UniProt P41595)	G protein activation, agonist, BRET	–	–	pEC50	5.12
CC[C@H](C)[C@H]1C(=O)N[C@H]([C@H](C)O)C(=O)NCC(=O)N[C@@H](CC(C)C)C(=O)N2CCC[C@H]2C(=O)N[C@@H](Cc2ccc(O)cc2)C(=O)N[C@H](CC(C)C)C(=O)N2CCC[C@@H]2C(=O)NCC(=O)N[C@@H](Cc2ccc(O)cc2)C(=O)N1C	–	–	aqueous buffer	18 h, pH 7.4	thermodynamic solubility	936 µM (≈ 1020 µg/mL)
CC(C)[C@H]1NC(=O)[C@H](Cc2ccccc2)NC(=O)CNC(=O)[C@@H](Cc2ccccc2)NC(=O)[C@H](CCCCN)NC(=O)[C@@H](CCCN)NC1=O	Balamuthia mandrillaris	parasite growth, ATP luminescence	–	–	IC50	> 16 µg/mL
Nc1nc(N)c(OCCCOc2ccccc2CCC(=O)O)c(C2CCCCC2)n1	–	–	female BALB/c mouse, plasma	oral, 3 mg/kg	half-life	2.5 h
N=c1c2c(-c3ccccc3)c(-c3ccccc3)n(Cc3ccccc3)c2ncn1[C@H]1CC[C@H](O)CC1	–	–	female minipig, plasma	oral, 2.5 mg/kg, single dose	bioavailability	> 80%
COc1ncccc1-c1cnn2ccc(N3CCN(C(=O)OC(C)C)CC3)nc12	CDKL3 (Homo sapiens, UniProt Q8IVW4)	binding, competition with immobilised ligand	–	1 µM	remaining binding	84%
CC(C)CC(=O)OC[C@H]1O[C@@](C#N)(c2ccc3c(N)ncnn23)[C@H](O)[C@@H]1O	–	metabolic stability	monkey, hepatocytes	5 µM	hepatocyte CLint	> 318 µL/min/10⁶ cells
Nc1ncc(-c2nc(N3CCOCC3)nc(N3CCOCC3)n2)c(C(F)F)n1	CAMK1G (Homo sapiens, UniProt Q96NX5)	binding, competition with immobilised ligand	–	10 µM	remaining binding	65%
COc1ccc2[nH]c(=S)n(Cc3cccnc3)c(=O)c2c1	4'-phosphopantetheinyl transferase PptT	enzyme activity, inhibitor, FP	–	–	pIC50	5.92
CC(C)(N)CNC(=O)O[C@@H]1CCC[C@]2(C1)OOC1(O2)C2CC3CC(C2)CC1C3 (stereo partly shown)	–	–	male CD-1 mouse, plasma	intravenous, 3 mg/kg	half-life	0.724 h

Compound	tested on	assay	test system	setting	endpoint	result
CC(C)(C)[C@H](NC(=O)[C@H](CCONC(=N)N)NC(=O)Cc1ccc(CNC(=N)N)cc1)C(=O)N[C@@H](CCONC(=N)N)C(=O)NCc1ccc(C(=N)N)cc1	–	–	male Sprague-Dawley rat, plasma	intraperitoneal, 2.5 mg/kg	Vd/F	0.639 L/kg
N.N.[Cl][Pt][Cl]	SU-DHL-4	cell growth or viability, ATP luminescence	–	72 h	pIC50	5.99
[2H]c1c([2H])c([C@]2([2H])CCCN2C(=O)C(C)(C)Oc2ccc3cn[nH]c3c2)c([2H])c([2H])c1C([2H])([2H])[2H]	MAP3K20 (Homo sapiens, UniProt Q9NYL2)	binding, competition with immobilised ligand	–	1 µM	remaining binding	88%
O=c1c2cc(Cl)c(CO)cc2[nH]c(=S)n1Cc1cncc(-c2nnn[nH]2)c1	4'-phosphopantetheinyl transferase PptT	enzyme activity, inhibitor, FP	–	–	pIC50	6.47
CC(C)C[C@@H]1NC(=O)[C@H](CCCNC(=N)N)NC(=O)[C@H]2CCCN2C(=O)[C@@H](N)CSSC[C@@H](C(=O)O)NC(=O)[C@@H]2CCCN2C(=O)[C@H](Cc2ccccc2)NC(=O)[C@H](CC(C)C)NC(=O)[C@H]([C@@H](C)O)NC(=O)[C@H](C(C)C)NC1=O	–	–	aqueous buffer	18 h, pH 7.4	thermodynamic solubility	872 µM (≈ 1000 µg/mL)
CN[C@H](CC(C)C)C(=O)N[C@H]1C(=O)N[C@@H](CC(N)=O)C(=O)N[C@H]2C(=O)NC3C(=O)N[C@H](C(=O)N[C@H](C(=O)NCCC[N+](C)(C)C)c4cc(O)cc(O)c4-c4cc3ccc4O)[C@H](O)c3ccc(c(Cl)c3)Oc3cc2cc(c3OC2OC(CO)C(O)[C@H](O)[C@@H]2O[C@H]2CC(C)(NCc3ccc(-c4ccc(Cl)cc4)cc3)[C@H](O)[C@H](C)O2)Oc2ccc(cc2Cl)[C@H]1O (stereo partly shown)	–	–	mouse, plasma	intravenous, 50 mg/kg	Vd	1.04 L/kg
N#Cc1cc(NC(=O)[C@H]2c3ccccc3C(=O)N(CC(F)(F)F)[C@@H]2c2cccnc2)ccc1F	–	general toxicity	Sprague-Dawley rat	oral, multiple doses	NOAEL	75 mg/kg
CC[C@H](C)CCCCC(=O)N[C@@H](CCN)C(=O)N[C@H](C(=O)N[C@@H](CCN)C(=O)N[C@H]1CCNC(=O)[C@H]([C@@H](C)O)NC(=O)[C@H](CCN)NC(=O)[C@H](CCN)NC(=O)[C@H](CC(C)C)NC(=O)[C@@H](CC(C)C)NC(=O)[C@H](CCN)NC1=O)[C@@H](C)O	–	–	male Sprague-Dawley rat, plasma	intravenous, 5 mg/kg	clearance	6.81 mL/min/kg
CC[C@H](C)[C@@H]1NC(=O)[C@H]2CCCN2C(=O)[C@@H](CC(C)C)NC(=O)CNC(=O)[C@H]2CCCN2C(=O)[C@@H](Cc2ccc(O)cc2)NC(=O)CNC(=O)[C@H](CO)NC(=O)[C@H](C(C)C)NC(=O)[C@H](CC(C)C)NC1=O	–	–	aqueous buffer	18 h, pH 7.4	thermodynamic solubility	911 µM (≈ 908 µg/mL)
CCCC[C@@H]1NC(=O)[C@H](Cc2ccc(O)cc2)NC(=O)[C@@H]2CCCN2C(=O)[C@H](CC(=O)O)NC(=O)[C@H](C)NC(=O)[C@H](Cc2ccccc2)NC(=O)[C@@H]2CSCCC(=O)N3CN(CN(C3)C(=O)CCSC[C@@H](C(=O)N[C@@H](CNC(=O)CCc3cn(CCOCCOCCOCCN(CCOCCOCCOCCC(=O)N[C@H]4CSCCC(=O)N5CN6CN(C5)C(=O)CCSC[C@H](NC(=O)[C@@H](CC(=O)O)NC(=O)[C@H](Cc5cccc7ccccc57)NC(=O)[C@@H]5CCCN5C4=O)C(=O)N[C@@H](CCSC)C(=O)N[C@@H](CCCCNC(=N)N)C(=O)N[C@@H](CC(=O)O)C(=O)N[C@@H](Cc4c[nH]c5ccccc45)C(=O)N[C@@H](CO)C(=O)N[C@@H]([C@@H](C)O)C(=O)N4CCC[C@H]4C(=O)N4C[C@H](O)C[C@H]4C(=O)N[C@@H](Cc4c[nH]c5ccccc45)C(=O)N[C@H](C(N)=O)CSCCC6=O)CCOCCOCCOCCn4cc(CCC(=O)NC[C@H](NC(=O)[C@@H]5CSCCC(=O)N6CN7CN(C6)C(=O)CCSC[C@H](NC(=O)[C@H](Cc6ccc(O)cc6)NC(=O)[C@@H]6CCCN6C(=O)[C@@H](C)NC(=O)[C@H](CCC(=O)O)NC(=O)[C@@H]6CCCN6C(=O)[C@H](CC(C)(C)C)NC(=O)[C@@H](NC(C)=O)CSCCC7=O)C(=O)N[C@@H](Cc6ccccc6)C(=O)N[C@@H](C)C(=O)N[C@@H](CC(=O)O)C(=O)N6CCC[C@H]6C(=O)N[C@@H](Cc6ccc(O)cc6)C(=O)N[C@@H](CCCC)C(=O)N5)C(N)=O)nn4)nn3)C(N)=O)NC1=O)C(=O)CCSC[C@H](NC(C)=O)C(=O)N[C@@H](CC(C)(C)C)C(=O)N1CCC[C@H]1C(=O)N[C@@H](CCC(=O)O)C(=O)N[C@H](C)C(=O)N1CCC[C@H]1C(=O)N[C@@H](Cc1ccc(O)cc1)C(=O)N2	–	–	rat, plasma	intravenous, 2 mg/kg	Vd	1.4 L/kg
CCC[C@@](N)(CO)CCc1ccc(OCCCCCC(C)C)cc1	–	–	dog, plasma	intravenous, 1 mg/kg	C0	89.4 nM
CC[C@H](C)[C@H]1C(=O)N[C@@H](CC(C)C)C(=O)N2CCC[C@H]2C(=O)N2CCC[C@@H]2C(=O)NCC(=O)N[C@@H](CC(C)C)C(=O)N[C@@H](CC(C)C)C(=O)N[C@@H](C)C(=O)N[C@@H](CO)C(=O)N[C@H]([C@H](C)O)C(=O)N[C@H](Cc2ccc(O)cc2)C(=O)N1C	–	–	aqueous buffer	18 h, pH 7.4	solubility	759 µM (≈ 865 µg/mL)
CCCC[C@H](NC(C)=O)C(=O)N[C@H]1CC(=O)NCCCC[C@@H](C(=O)N2CCC[C@@H]2C(=O)N[C@@H](C(=O)N2CCC[C@@H]2C(N)=O)C(C)C)NC(=O)[C@H](Cc2c[nH]c3ccccc23)NC(=O)[C@H](CCCNC(=N)N)NC(=O)[C@@H](Cc2ccccc2)NC(=O)[C@@H]2CCCN2C1=O	–	–	male cynomolgus monkey, plasma	subcutaneous, 3 mg/kg	half-life	2.48 h
CC[C@@H](C)[C@H]1NC(=O)[C@@H](Cc2ccc(O)cc2)NC(=O)[C@H](CCCNC(=N)N)NC(=O)[C@H](CCSC)NC(=O)[C@H](CC(C)C)NC(=O)[C@H](CC(C)C)NC(=O)[C@H]2CCCN2C(=O)[C@H](CC(C)C)NC(=O)CNC(=O)CNC(=O)CNC1=O	–	–	aqueous buffer	18 h, pH 7.4	thermodynamic solubility	655 µM (≈ 767 µg/mL)
C=C(C)[C@@H]1CC[C@]2(NCCN3CCS(=O)(=O)CC3)CC[C@]3(C)[C@H](CC[C@@H]4[C@@]5(C)CC=C(C6=CC[C@@](COc7ncccc7C#N)(C(=O)O)CC6)C(C)(C)[C@@H]5CC[C@]43C)[C@@H]12	–	–	human, plasma	oral, 100 mg, 24 h, single dose, fasted, tablet	concentration	154 ng/mL
